Experimental data of several laboratories.
Lines come from different studies, so protocols differ. Several values in a cell are separate wells, animals, samples, runs or records. ± marks the error that the study gave.

`COc1ccccc1-c1ccncc1C(=O)Nc1ccc(OCc2ccc(Cl)cc2)nn1` gave a colony survival of 98.3% and 102% and 98% (DLD-1 BRCA2-/-; 10 µM; reference: untreated).
`COC(=O)c1cc(NC2=NC(=O)C(=Cc3ccc(N(C)C)cc3)S2)ccc1OC(C)=O` gave a fold change of 0.224 (MCF7; item: UBE2W mRNA; 0.81 µM (IC50), 24 h; reference: DMSO).
`Cc1cc(NC2CCN(C)CC2)ccc1-c1cc2c(N3CCC[C@H](C(=O)Nc4ccc(C(F)(F)F)cc4)C3)ncnc2[nH]1` has an inhibition of 70.2% (NCI-H2228; cell growth or viability, MTT; 0.2 µg/mL, 72 h).
With `CCCC(=O)Oc1c(C)c(OC)c2c(/C=C/c3ccccc3)c(CC)c(=O)oc2c1C` the selectivity index was > 1.69 (KKU-M213; SRB; reference: normal over KKU-M213 IC50).
`O=C(C[Se]C(=O)C12CC3CC(CC(C3)C1)C2)Nc1cccc(C(F)(F)F)c1` gave a GI50 of 3480 nM (NCI60 renal subpanel; cell growth, inhibitor; five-dose).
For `COC(=O)c1cc(NC2=NC(=O)C(=Cc3ccc(C)cc3)S2)ccc1OC(C)=O`, the metabolite level was 0.03 fold change (MCF7; GC-MS, item: Scyllo-Inositol; 1 µM; reference: DMSO).
Under “mean growth percent”, `O=C(C[Se]C(=O)c1ccccc1Nc1cccc(C(F)(F)F)c1)Nc1cccc(C(F)(F)F)c1` is recorded as -92% (NCI60 renal subpanel; cell growth; 10 µM, 48 h, one-dose).
For `Cc1ncsc1-c1ccc(C(C)NC(=O)C2CC(O)CN2C(=O)C(NC(=O)CCCCCCCCCCN2CCCC(Nc3ncc(Cl)c(Nc4ccccc4S(=O)(=O)C(C)C)n3)C2)C(C)(C)C)cc1` (stereo not drawn), “log2 fold change” read -1.54 (22Rv1; RNA-seq, item: RNF146 mRNA; concentration not given; reference: DMSO).
The inhibition of `Cc1cc(N2CCCCC2)ccc1-c1cc2c(N3CCC[C@H](C(=O)NCc4ccc(OC(F)(F)F)cc4)C3)ncnc2[nH]1` is reported as 12.3% (NCI-H2228; cell growth or viability, MTT; 0.008 µg/mL, 72 h).
`CCN(C(=O)c1cc(F)ccc1Oc1nncnc1N1CCC2(C1)CN([C@H](CCCN(C)CCOC)C(C)C)C2)C(C)C` has a GI50 of > 10000 nM (BXPC-3; cell growth or viability; 7 days).
Under “G2/M phase cells”, `Cc1cc(Cl)cc(-c2ccnc3cc(CN4C(=O)C5C(C4=O)C5(C)C)sc23)c1C[C@@H]1CNCCO1` (stereo partly drawn) is recorded as 19.9% (CHP-212 parental; PI flow cytometry; 0.1 µM, 24 h).
`Cc1cc(NC2CCN(C)CC2)ccc1-c1cc2c(N3CCC[C@H](C(=O)Nc4cccc(Cl)c4)C3)ncnc2[nH]1` gave an inhibition of 75.8% (NCI-H2228; cell growth or viability, MTT; 1 µg/mL, 72 h).
`[BH3-][P+]1(c2ccccc2)CCC(=O)CC1` gave a selectivity index of 1 (SW480; MTT; 72 h; reference: IC50 HaCaT over IC50 SW480).
For `CNS(=O)(=O)Nc1nccc(Cc2c(C)c3ccc(Oc4ncccc4F)cc3oc2=O)c1F`, the IC50 was 15.9 nM (SW480; cell viability; 7 days).
The efficacy of `CCc1nnc(NC(=O)c2cccc(C(=O)Nc3nnc(CC)s3)n2)s1` is reported as 136% (LDR; silenced CMV-GFP reporter derepression, qHTS).
`COc1ccc2c(c1)OC1=C(C(=O)CCC1)C2c1c[nH]c2ccccc12` (stereo not drawn): mRNA level “decreased” (3T3-L1 adipocytes; qPCR, item: FAS; IC20, 14 days; reference: untreated mature adipocytes).
The Pearson correlation of `C=CC(=O)N1[C@H](c2ccc3c(c2)OCO3)c2[nH]c3ccccc3c2C[C@H]1C(=O)N1CCOCC1` is reported as 0.88 (22Rv1 SF3B1 C1111S; ATAC-seq profile; concentration not given, at FOXA1-binding sites, unit not given; reference: parental 22Rv1).
For `COc1ccc(NC(=O)C2CCCN(c3ncnc4[nH]c(-c5ccc(NC6CCN(C)CC6)cc5C)cc34)C2)cc1` (stereo not drawn), the inhibition was 73.3% (NCI-H2228; cell growth or viability, MTT; 1 µg/mL, 72 h).
`Cc1ccc(-n2cc(CSc3nc4ccccc4n3Cc3cn(-c4ccc(C)cc4)nn3)nn2)cc1` has a viability of 94.5% (Caco-2; MTT; 3.91 ppm).
The Emax of `COc1ccc(NC(=O)CSc2nc3c(oc4ccccc43)c(=O)n2Cc2ccco2)cc1Cl` is reported as 72% (LDR; silenced CMV-GFP reporter derepression, qHTS).
For `CC(=O)Oc1ccccc1C(=O)[Se]CC(=O)Nc1cccc(C(F)(F)F)c1`, the GI50 was 1960 nM (NCI60 NSCLC subpanel; NCI60 five-dose screen).
`O=[N+]([O-])C(=C\Nc1ccccc1O)/C=N/c1ccccc1O` has an EC50 of 3160 nM (LDR; silenced CMV-GFP reporter derepression, qHTS).
`Cc1cc(NC2CCN(C)CC2)ccc1-c1cc2c(N3CCC[C@H](C(=O)Nc4ccc(C#N)cc4)C3)ncnc2[nH]1` has an inhibition of 60.7% (NCI-H2228; cell growth or viability, MTT; 0.04 µg/mL, 72 h).
`CCN(CC)CC(=O)Nc1cccc(-n2cc(-c3ccc4ccc(-c5cn(-c6cccc(NC(=O)CN(CC)CC)c6)nn5)cc4c3)nn2)c1` gave a fold regulation of -1.05 fold (RCC4; PCR angiogenesis array, item: THBS2; 5 x IC50, 2 h, normoxia; reference: untreated).
`C=CC(=O)Nc1cccc(Cn2ncc3cnc(Nc4cnn(CCOC)c4)nc32)c1` — result for “percent of control”: 100% (AKT1 human; binding, KINOMEscan; 100 nM; lower = stronger binding).
`COc1cccc(OC)c1-c1cc(C(=O)NC2(C(=O)O)C3CC4CC(C3)CC2C4)nn1-c1ccc(C(=O)N(C)CCOCCN(C)C(=O)[C@H](CCCCNC(=O)[C@H](CC(C)C)NC(=O)C2OC2C(=O)O)NC(=O)CN2CCN(CC(=O)[O-])CCN(CC(=O)[O-])CCN(CC(=O)[O-])CC2)cc1C(C)C.[177Lu+3]` (mixture of isomers) gave an internalized fraction of 2.69 ± 0.2% (HT-29; concentration not given, 30 min; reference: added activity).
With `CC1(C)C[C@@H](Nc2cccc(-c3sc(C(=O)O)c(OCC(=O)O)c3Cl)c2)CCN1S(=O)(=O)Cc1cccc(NC(=O)CN2CCC(c3ccc4c(c3)oc(=O)n4C3CCC(=O)NC3=O)CC2)c1` (stereo partly drawn) the fold change was 1.69 and 1.64 and 1.48 and 1.37 and 1.6 and 1.5 (B16-F10; HTRF, item: phospho-STAT1 Tyr701; 0.041 µM, added: IFN-γ; reference: DMSO).
With `O=C(NCc1ccc(OC(F)(F)F)cc1)[C@H]1CCCN(c2ncnc3[nH]c(-c4ccccc4)cc23)C1` the inhibition was 84.2% (NCI-H2228; cell growth or viability, MTT; 5 µg/mL, 72 h).
Under “mean growth percent”, `O=C(C[Se]C(=O)c1ccccc1Nc1ccccc1)Nc1cccc(C(F)(F)F)c1` is recorded as -79.6% (NCI60 renal subpanel; cell growth; 10 µM, 48 h, one-dose).
`COCC/N=C(\S)N/N=C(\C)c1ccccc1O` has an efficacy of 65% (LDR; silenced CMV-GFP reporter derepression, qHTS).
For `COc1cc(N2CCN(C(=O)C3CCCN3)CC2)ccc1Nc1ncc(Cl)c(Nc2ccccc2P(C)(C)=O)n1` (stereo not drawn), “early apoptotic cells” read 3.3% (Ba/F3 EML4-ALK; annexin V flow cytometry; concentration not given, 0.5 h).
`COc1ccc2c(C)nc(Nc3nc(O)cc(-c4ccccc4)n3)nc2c1` gave an efficacy of 76% (LDR; silenced CMV-GFP reporter derepression, qHTS).
For `CN1CCCNC(=O)c2cccc(c2)C(=O)NCCCN(C)CCCNc2cccc3c2C(=O)c2cccc(c2C3=O)NCCC1`, “log2 fold change” read -0.82 (SAS; RNA-seq, item: NAV1 mRNA; 1 µM, 6 h; reference: untreated cells).
`COc1ccc(NC(=O)c2ccc3[nH]c(-c4ccc(N(C)C)cc4)nc3c2)cn1` has a caspase-3/7 activity of 2.5 and 2.62 and 2.31 (HCT-116; Caspase-Glo; 8 µM, 16 h, unit not given; reference: DMSO).
`CO[C@@H]1[C@@H](OC(N)=O)[C@@H](O)[C@H](Oc2ccc3c(O)c(NC(=O)c4ccc(O)c(CC=C(C)C)c4)c(=O)oc3c2C)OC1(C)C` has a colony survival of 0.326% (DLD-1 BRCA2-/-; 100 µM, mean of replicates A, B; reference: untreated).
The phototherapeutic index of `[Cl-].[Cl-].[Ru+2].c1ccc(-c2ccccn2)nc1.c1ccc(-c2ccccn2)nc1.c1ccc2cc3nc4c5cccnc5c5ncccc5c4nc3cc2c1` is reported as 1 (SK-MEL-28; cell viability, resazurin; dark, 1% O2 hypoxia; reference: dark EC50 over visible EC50).
The inhibition of `Cc1cc(NC2CCN(C)CC2)ccc1-c1cc2c(N3CCC[C@H](C(=O)N4CCCCC4)C3)ncnc2[nH]1` is reported as 89.8% (NCI-H2228; cell growth or viability, MTT; 5 µg/mL, 72 h).
The colony survival of `COc1ccccc1-c1ccncc1C(=O)Nc1nnc(OCc2ccc(Cl)cc2)s1` is reported as 43.4% (MDA-MB-436 BRCA1-mutant; 6 µM, mean of 3 replicates; reference: untreated).
With `Cc1cc(NC2CCN(C)CC2)ccc1-c1cc2c(N3CCC[C@H](C(=O)N[C@@H](C)c4ccccc4)C3)ncnc2[nH]1` the inhibition was 12% (NCI-H2228; cell growth or viability, MTT; 0.008 µg/mL, 72 h).
Under “log2 fold change”, `Cn1ncc2cc(-c3cncc(Cl)c3N3CCC4(CCNC4=O)CC3)ccc21` is recorded as -2.43 (LS174T; gene expression, microarray, item: DIO2 mRNA; concentration not given, 24 h; reference: untreated cells).
`COc1cc(OC)c(F)c(/C=C/c2cnc3ccn(S(=O)(=O)c4cn(CCF)cn4)c3n2)c1F` has an inhibition of 69% and 69.4% (SNU-16 (FGFR2-amplified); cell proliferation; 1000.0 nM).
`CCc1ccc(OCc2nnc(SC3CCCC3=O)n2C(C)c2ccccc2)cc1` (stereo not drawn) gave an inhibition of 47.3% (HEK293T; FOPFlash reporter gene, inhibitor; 10 µM, 24 h, counter-screen, viability-normalized).
The GI50 of `COc1ccc2c(c1)c(CC(=O)[Se]CC(=O)Nc1cccc(C(F)(F)F)c1)c(C)n2C(=O)c1ccc(Cl)cc1` is reported as 1970 nM (NCI60 renal subpanel; cell growth, inhibitor; five-dose).
With `CC(C)c1ccc(N(C)c2ccc3c(c2)OCC[C@H]3CNc2cnccc2C(=O)O)cc1` the IC50 was ≥ 10000 nM (NCI-H1395; cell growth or viability, ATP luminescence; 7 days).
For `Cc1cc(-c2ccnc3cc(O)ccc23)ccc1O`, inhibition read “inhibited” (HEK-Blue TLR8 cells; TLR8 activation; 80 nM, added: ssRNA40 2.5 µg/mL).
For `Cc1sc2c(c1C)C(c1ccc(Cl)cc1)=N[C@@H](CC(=O)NCC(=O)N1CCC3(CCC(C(=O)N4CCN(C(=O)c5cc(Cc6n[nH]c(=O)c7ccccc67)ccc5F)CC4)CC3)CC1)c1nnc(C)n1-2`, “cells in G2 phase” read 21% (NCI-H82; 10 nM, 24 h).
For `COC1CN([C@H]2CC[C@H]([C@@]3(C)Oc4c(Cl)cc(C(=O)NCc5c(SC)cc(C)[nH]c5=O)c(C)c4O3)CC2)C1`, “log2 fold change” read 2.7 (RNA-seq, item: FHIP1A; human, whole blood; dose not given, 24 h; reference: pretreatment baseline).
For `COCCCCCNc1nc(NCCCCCCN(C)C)c2cc(NC(=O)/C=C/CN(C)C)ccc2n1`, the viability was 0.971 and 0.957 and 1.07 (MCF7; CellTiter-Glo; 0.09766 µM, 72 h, unit not given; reference: DMSO-treated cells).

Some of these lines once more:
`O=C(C[Se]C(=O)C12CC3CC(CC(C3)C1)C2)Nc1cccc(C(F)(F)F)c1` gave a GI50 of 3480 nM (NCI60 renal subpanel; cell growth, inhibitor; five-dose).
For `COC(=O)c1cc(NC2=NC(=O)C(=Cc3ccc(C)cc3)S2)ccc1OC(C)=O`, the metabolite level was 0.03 fold change (MCF7; GC-MS, item: Scyllo-Inositol; 1 µM; reference: DMSO).
Under “mean growth percent”, `O=C(C[Se]C(=O)c1ccccc1Nc1cccc(C(F)(F)F)c1)Nc1cccc(C(F)(F)F)c1` is recorded as -92% (NCI60 renal subpanel; cell growth; 10 µM, 48 h, one-dose).
